Measurements of several laboratories.
Every numbered part comes from another study and shows a few of its results, in no order.
Chain of UniProt P08922 (whole entry, looked up): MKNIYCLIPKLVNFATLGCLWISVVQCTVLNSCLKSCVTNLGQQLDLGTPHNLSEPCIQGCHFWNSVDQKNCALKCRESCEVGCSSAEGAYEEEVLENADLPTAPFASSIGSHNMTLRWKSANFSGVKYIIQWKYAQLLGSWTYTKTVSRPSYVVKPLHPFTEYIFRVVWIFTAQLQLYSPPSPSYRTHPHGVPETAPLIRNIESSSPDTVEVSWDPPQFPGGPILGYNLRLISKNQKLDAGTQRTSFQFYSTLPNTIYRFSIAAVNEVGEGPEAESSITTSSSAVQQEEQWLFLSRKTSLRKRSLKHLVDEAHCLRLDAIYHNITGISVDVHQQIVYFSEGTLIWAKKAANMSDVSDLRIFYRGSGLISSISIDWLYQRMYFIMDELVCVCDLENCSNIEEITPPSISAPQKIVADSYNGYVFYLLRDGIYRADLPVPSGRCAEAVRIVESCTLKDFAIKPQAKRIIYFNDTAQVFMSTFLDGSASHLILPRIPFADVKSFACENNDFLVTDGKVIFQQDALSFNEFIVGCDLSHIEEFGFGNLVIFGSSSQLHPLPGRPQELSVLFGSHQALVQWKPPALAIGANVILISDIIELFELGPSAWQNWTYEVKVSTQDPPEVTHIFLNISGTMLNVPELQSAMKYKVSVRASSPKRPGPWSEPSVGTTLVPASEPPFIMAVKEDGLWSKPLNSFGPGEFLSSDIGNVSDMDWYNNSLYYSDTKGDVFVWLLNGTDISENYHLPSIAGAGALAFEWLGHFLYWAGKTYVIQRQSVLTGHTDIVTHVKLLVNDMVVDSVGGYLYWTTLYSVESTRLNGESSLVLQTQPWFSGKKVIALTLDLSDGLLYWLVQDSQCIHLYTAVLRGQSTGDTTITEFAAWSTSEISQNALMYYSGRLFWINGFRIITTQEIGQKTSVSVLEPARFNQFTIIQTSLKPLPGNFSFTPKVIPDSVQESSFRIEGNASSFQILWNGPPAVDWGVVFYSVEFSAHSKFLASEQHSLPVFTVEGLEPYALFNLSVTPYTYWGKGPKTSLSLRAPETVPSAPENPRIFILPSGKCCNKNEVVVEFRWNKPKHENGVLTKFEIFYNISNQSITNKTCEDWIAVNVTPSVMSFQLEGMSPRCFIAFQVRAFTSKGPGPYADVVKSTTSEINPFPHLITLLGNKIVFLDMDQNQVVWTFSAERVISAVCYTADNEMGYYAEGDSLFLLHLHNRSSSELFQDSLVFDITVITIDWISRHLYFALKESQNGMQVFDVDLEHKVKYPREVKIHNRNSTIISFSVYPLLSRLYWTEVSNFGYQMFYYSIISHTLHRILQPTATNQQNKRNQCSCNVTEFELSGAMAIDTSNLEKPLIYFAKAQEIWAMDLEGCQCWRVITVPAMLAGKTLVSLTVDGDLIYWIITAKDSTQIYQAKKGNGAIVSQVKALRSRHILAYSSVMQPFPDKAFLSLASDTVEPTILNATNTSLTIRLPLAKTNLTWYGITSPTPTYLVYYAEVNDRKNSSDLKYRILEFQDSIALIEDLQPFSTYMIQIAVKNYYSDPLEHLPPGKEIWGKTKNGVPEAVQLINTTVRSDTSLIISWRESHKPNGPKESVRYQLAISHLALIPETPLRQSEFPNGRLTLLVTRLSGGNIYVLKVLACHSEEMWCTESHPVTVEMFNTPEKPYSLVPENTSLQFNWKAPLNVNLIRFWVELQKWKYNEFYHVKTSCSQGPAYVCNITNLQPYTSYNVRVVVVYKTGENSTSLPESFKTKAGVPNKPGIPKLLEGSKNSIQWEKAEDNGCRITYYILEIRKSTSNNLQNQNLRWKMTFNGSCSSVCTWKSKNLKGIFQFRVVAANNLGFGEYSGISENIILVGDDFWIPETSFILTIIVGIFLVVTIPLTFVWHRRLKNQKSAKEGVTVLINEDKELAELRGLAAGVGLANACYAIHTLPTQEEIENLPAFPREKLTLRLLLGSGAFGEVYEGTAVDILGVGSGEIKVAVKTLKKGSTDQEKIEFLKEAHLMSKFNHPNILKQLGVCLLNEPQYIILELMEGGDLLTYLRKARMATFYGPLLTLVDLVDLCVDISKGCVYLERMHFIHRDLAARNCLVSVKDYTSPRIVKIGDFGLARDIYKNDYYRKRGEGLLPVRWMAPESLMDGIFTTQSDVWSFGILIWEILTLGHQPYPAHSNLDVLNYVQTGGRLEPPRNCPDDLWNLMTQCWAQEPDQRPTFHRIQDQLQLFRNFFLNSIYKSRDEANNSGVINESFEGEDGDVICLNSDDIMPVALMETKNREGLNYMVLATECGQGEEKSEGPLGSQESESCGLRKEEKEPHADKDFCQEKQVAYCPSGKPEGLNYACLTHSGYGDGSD
Chain of UniProt Q15303 (whole entry, looked up): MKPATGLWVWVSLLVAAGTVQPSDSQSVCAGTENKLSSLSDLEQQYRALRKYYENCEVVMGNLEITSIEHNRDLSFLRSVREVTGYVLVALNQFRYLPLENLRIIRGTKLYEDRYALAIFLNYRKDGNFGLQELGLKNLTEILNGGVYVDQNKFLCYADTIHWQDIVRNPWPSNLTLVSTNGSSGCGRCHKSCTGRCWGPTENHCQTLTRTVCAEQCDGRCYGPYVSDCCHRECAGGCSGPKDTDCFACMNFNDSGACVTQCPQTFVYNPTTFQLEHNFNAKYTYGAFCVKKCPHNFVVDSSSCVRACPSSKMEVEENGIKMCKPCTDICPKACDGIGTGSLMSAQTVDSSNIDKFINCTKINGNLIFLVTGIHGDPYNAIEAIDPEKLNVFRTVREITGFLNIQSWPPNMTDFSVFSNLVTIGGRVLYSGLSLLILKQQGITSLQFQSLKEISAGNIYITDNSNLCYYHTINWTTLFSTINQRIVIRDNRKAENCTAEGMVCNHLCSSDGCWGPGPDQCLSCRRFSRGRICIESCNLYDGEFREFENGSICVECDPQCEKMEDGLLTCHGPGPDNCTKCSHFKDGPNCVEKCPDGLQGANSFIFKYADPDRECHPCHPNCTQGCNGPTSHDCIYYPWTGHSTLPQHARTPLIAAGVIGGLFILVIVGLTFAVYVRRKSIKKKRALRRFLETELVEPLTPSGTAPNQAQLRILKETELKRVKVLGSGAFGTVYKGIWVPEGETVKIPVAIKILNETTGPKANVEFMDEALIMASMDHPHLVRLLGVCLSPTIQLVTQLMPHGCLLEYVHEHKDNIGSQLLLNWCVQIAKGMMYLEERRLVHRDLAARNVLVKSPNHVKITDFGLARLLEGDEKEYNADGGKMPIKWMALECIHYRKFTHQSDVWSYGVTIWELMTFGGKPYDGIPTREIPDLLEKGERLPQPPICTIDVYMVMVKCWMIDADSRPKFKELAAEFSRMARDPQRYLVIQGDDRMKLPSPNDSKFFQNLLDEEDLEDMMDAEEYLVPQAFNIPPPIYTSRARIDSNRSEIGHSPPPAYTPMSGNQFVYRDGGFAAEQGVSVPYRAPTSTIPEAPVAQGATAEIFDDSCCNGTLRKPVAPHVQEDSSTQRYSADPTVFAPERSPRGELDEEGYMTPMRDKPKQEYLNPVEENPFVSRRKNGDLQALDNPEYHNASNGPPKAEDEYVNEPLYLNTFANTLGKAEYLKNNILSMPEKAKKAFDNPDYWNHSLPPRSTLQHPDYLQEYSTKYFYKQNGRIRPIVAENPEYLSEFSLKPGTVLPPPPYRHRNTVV
Chain of UniProt O75716 (whole entry, looked up): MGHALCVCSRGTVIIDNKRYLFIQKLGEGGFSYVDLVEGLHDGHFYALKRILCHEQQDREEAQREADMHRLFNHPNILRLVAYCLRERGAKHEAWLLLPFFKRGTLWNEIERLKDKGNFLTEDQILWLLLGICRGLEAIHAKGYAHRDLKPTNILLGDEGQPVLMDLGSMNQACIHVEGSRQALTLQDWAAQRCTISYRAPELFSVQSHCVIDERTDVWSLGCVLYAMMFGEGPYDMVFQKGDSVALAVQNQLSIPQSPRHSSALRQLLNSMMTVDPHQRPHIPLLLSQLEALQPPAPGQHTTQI
Chain of UniProt O15075 (whole entry, looked up): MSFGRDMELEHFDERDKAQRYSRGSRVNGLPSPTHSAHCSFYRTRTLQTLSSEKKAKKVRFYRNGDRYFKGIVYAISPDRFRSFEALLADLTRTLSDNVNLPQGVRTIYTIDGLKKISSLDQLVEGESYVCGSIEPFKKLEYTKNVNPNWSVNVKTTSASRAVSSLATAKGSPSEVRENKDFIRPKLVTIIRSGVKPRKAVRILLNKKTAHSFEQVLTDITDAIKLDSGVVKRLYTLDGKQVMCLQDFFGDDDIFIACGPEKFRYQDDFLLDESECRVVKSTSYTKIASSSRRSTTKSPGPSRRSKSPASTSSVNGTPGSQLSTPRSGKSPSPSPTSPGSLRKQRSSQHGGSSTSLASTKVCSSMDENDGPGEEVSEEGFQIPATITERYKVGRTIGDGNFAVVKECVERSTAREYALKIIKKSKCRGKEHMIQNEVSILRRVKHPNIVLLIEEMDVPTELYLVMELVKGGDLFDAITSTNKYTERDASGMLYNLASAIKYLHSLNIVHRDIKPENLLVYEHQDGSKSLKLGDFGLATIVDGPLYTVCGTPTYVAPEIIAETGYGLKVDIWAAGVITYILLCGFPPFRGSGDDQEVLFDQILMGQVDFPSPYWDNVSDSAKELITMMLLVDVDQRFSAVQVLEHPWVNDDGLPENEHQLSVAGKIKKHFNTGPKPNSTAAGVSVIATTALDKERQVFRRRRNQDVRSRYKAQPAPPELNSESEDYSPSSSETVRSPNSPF
Chain of UniProt Q9UEE5 (whole entry, looked up): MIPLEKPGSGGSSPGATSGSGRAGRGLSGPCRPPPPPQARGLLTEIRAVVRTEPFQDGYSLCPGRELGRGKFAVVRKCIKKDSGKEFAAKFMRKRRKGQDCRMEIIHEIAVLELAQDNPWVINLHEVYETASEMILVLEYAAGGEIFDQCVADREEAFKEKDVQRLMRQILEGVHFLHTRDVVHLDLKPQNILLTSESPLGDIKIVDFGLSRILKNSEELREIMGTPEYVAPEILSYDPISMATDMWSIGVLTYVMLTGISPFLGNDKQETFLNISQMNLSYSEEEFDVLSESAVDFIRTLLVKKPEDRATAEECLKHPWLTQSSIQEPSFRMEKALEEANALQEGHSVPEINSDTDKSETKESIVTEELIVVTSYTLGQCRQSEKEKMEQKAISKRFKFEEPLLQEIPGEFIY

Sample 1
Organism: Sarcocystis neurona
Read-out: parasite activity
Tested at: concentration not given
Endpoint: activity class
SMILES = Cl.O=C(O)/C=C/c1ccc(Cn2ccnc2)cc1; result = inactive
SMILES = CN1CCc2cc(Cl)c(O)cc2[C@@H](c2ccccc2)C1.Cl; result = inactive
SMILES = CC1(C)C[C@@H]1C(=O)N/C(=C\CCCCSC[C@H](N)C(=O)O)C(=O)[O-].[Na+]; result = inactive
SMILES = COc1ccc2[n-]c([S+]([O-])Cc3ncc(C)c(OC)c3C)nc2c1.COc1ccc2[n-]c([S+]([O-])Cc3ncc(C)c(OC)c3C)nc2c1.[Mg+2] (stereo not shown); result = inactive
SMILES = Nc1nc(Cl)nc2c1ncn2[C@@H]1O[C@H](CO)[C@@H](O)[C@H]1O; result = inactive
SMILES = Nc1ncn([C@@H]2O[C@H](CO)[C@@H](O)[C@H]2O)c(=O)n1; result = inactive
SMILES = COc1nc(C)nc(Cl)c1NC1=NCCN1.Cl; result = inactive
SMILES = CC(COc1ccccc1Cc1ccccc1)N1CCCCC1.O=P(O)(O)O (stereo not shown); result = inactive
SMILES = Cc1nccn1CC1CCc2c(c3ccccc3n2C)C1=O.Cl (stereo not shown); result = inactive
SMILES = C[C@]12CC[C@@H]3c4ccc(O)cc4CC[C@H]3[C@@H]1CC[C@@H]2O; result = inactive

Sample 2
Medium: 1,9-decadiene/PBS
pH: 7.4
Endpoint: logD
Structure (SMILES) = CC(C)C[C@@H]1NC(=O)[C@H](CC(C)C)NC(=O)[C@@H](CC(C)C)NC(=O)[C@@H](C(C)C)NC(=O)[C@H](C(C)C)NC(=O)[C@H](CC(C)C)NC(=O)[C@@H](CC(C)C)NC1=O; result = 2.75
Structure (SMILES) = CC(C)C[C@@H]1NC(=O)[C@H](CC(C)C)NC(=O)[C@@H](C(C)C)NC(=O)[C@H](CC(C)C)NC(=O)[C@H](C(C)C)NC(=O)[C@H](C)NC(=O)[C@H](C)NC1=O; result = -0.466
Structure (SMILES) = CC(C)C[C@@H]1NC(=O)[C@@H](C)NC(=O)[C@H](C)NC(=O)[C@H](C)NC(=O)[C@H](C(C)C)NC(=O)[C@H](CC(C)C)NC(=O)[C@@H](CC(C)C)NC1=O; result = -2.1
Structure (SMILES) = CC(C)C[C@@H]1NC(=O)[C@H](CC(C)C)NC(=O)[C@H](CC(C)C)NC(=O)[C@H](CC(C)C)NC(=O)[C@@H](CCC(=O)N2CCCC2)NC(=O)[C@H](C)NC(=O)[C@H](C)NC1=O; result = -1.62
Structure (SMILES) = CC(C)C[C@@H]1NC(=O)[C@H](CC(C)C)NC(=O)[C@@H](C(C)C)NC(=O)[C@H](C)NC(=O)[C@@H](Cc2cscn2)NC(=O)[C@@H](CC(C)C)NC(=O)[C@H](C)NC1=O; result = -1.72
Structure (SMILES) = CC(C)C[C@@H]1NC(=O)[C@H](CC(C)C)NC(=O)[C@@H](CC(C)C)NC(=O)[C@H](CC(C)C)NC(=O)[C@H](C(C)C)NC(=O)[C@H](Cc2cscn2)NC(=O)[C@H](C)NC1=O; result = 0.0654
Structure (SMILES) = CC(C)C[C@@H]1NC(=O)[C@H](CC(C)C)NC(=O)[C@@H](C(C)C)NC(=O)[C@H](CC(C)C)NC(=O)[C@H](C(C)C)NC(=O)[C@H](Cc2cscn2)NC(=O)[C@H](C)NC1=O; result = -0.559
Structure (SMILES) = CC(C)C[C@@H]1NC(=O)[C@H](C)NC(=O)[C@@H](CC(C)C)NC(=O)[C@H](CC(C)C)NC(=O)[C@H](C(C)C)NC(=O)[C@H](CC(C)C)NC(=O)[C@@H](CC(C)C)NC1=O; result = 1.18
Structure (SMILES) = CC(C)C[C@@H]1NC(=O)[C@@H](C)NC(=O)[C@H](C)NC(=O)[C@@H](CC(C)C)NC(=O)[C@H](C(C)C)NC(=O)[C@H](CC(C)C)NC(=O)[C@@H](CC(C)C)NC1=O; result = -0.745
Structure (SMILES) = CC(C)C[C@@H]1NC(=O)[C@H](CC(C)C)NC(=O)[C@@H](CC(C)C)NC(=O)[C@H](CC(C)C)NC(=O)[C@H](C(C)C)NC(=O)[C@H](C)NC(=O)[C@H](C)NC1=O; result = 0.0814
Structure (SMILES) = CC(C)C[C@@H]1NC(=O)[C@@H](C)NC(=O)[C@H](CCC(=O)N2CCCC2)NC(=O)[C@H](C)NC(=O)[C@H](C(C)C)NC(=O)[C@H](CC(C)C)NC(=O)[C@@H](CC(C)C)NC1=O; result = -1.78
Structure (SMILES) = CC(C)C[C@@H]1NC(=O)[C@H](C)NC(=O)[C@H](C)NC(=O)[C@@H](CC(C)C)NC(=O)[C@H](C)NC(=O)[C@H](CC(C)C)NC(=O)[C@H](CC(C)C)NC1=O; result = -1.28

Sample 3
Compound: C[C@@H]1CN(c2cc(-c3n[nH]c4ccc(OC5(C)CC5)cc34)ncn2)C[C@H](C)O1
Read-out: cell-free assay
Method: competition with immobilised ligand
Tested at: 0.1 µM
Endpoint: remaining binding
target = RET (Homo sapiens, UniProt P07949); result = 100%
target = MAP3K20 (Homo sapiens, UniProt Q9NYL2); result = 92%
target = AKT2 (Homo sapiens, UniProt P31751); result = 100%
target = NUAK1 (Homo sapiens, UniProt O60285); result = 92%
target = PAK1 (Homo sapiens, UniProt Q13153); result = 97%
target = FLT3 (Homo sapiens, UniProt P36888, D835Y); result = 100%
target = ROS1 (Homo sapiens, UniProt P08922); result = 100%
target = DCLK1 (Homo sapiens, UniProt O15075); result = 81%
target = TNK1 (Homo sapiens, UniProt Q13470); result = 76%
target = BMPR2 (Homo sapiens, UniProt Q13873); result = 75%
target = ERBB4 (Homo sapiens, UniProt Q15303); result = 90%
target = CDK9 (Homo sapiens, UniProt P50750); result = 80%
target = MAP3K9 (Homo sapiens, UniProt P80192); result = 100%
target = MAP3K5 (Homo sapiens, UniProt Q99683); result = 88%

Sample 4
SMILES: Cn1cnc2cc3c(Nc4cccc(Br)c4)ncnc3cc21
Read-out: enzyme activity
Mode: inhibitor
Tested at: 0.5 µM
Relative to: control
Endpoint: remaining activity
target = CAMK2B (Homo sapiens, UniProt Q13554); result = 102%
target = STK16 (Homo sapiens, UniProt O75716); result = 96.3%
target = SRMS (Homo sapiens, UniProt Q9H3Y6); result = 84%
target = WNK3 (Homo sapiens, UniProt Q9BYP7); result = 95.8%
target = Cyclin-dependent kinase 4, with cyclin D3 (CDK4, Homo sapiens, UniProt P11802); result = 95.9%
target = Cyclin-dependent kinase 1, with cyclin B (CDK1, Homo sapiens, UniProt P06493); result = 97.9%
target = MAPKAPK3 (Homo sapiens, UniProt Q16644); result = 94.4%
target = MAP4K4 (Homo sapiens, UniProt O95819); result = 52.1%
target = HIPK2 (Homo sapiens, UniProt Q9H2X6); result = 106%
target = STK17A (Homo sapiens, UniProt Q9UEE5); result = 82.5%
target = TSSK2 (Homo sapiens, UniProt Q96PF2); result = 111%
target = DYRK3 (Homo sapiens, UniProt O43781); result = 102%
target = PDPK1 (Homo sapiens, UniProt O15530); result = 98.8%
target = BLK (Homo sapiens, UniProt P51451); result = 81%
target = EPHB1 (Homo sapiens, UniProt P54762); result = 72.2%
target = PHKG1 (Homo sapiens, UniProt Q16816); result = 85%
target = RPS6KA5 (Homo sapiens, UniProt O75582); result = 93.5%
target = AXL (Homo sapiens, UniProt P30530); result = 101%
target = RPS6KA6 (Homo sapiens, UniProt Q9UK32); result = 92.5%

Some of these lines once more (sample 3):
target = ERBB4 (Homo sapiens, UniProt Q15303); result = 90%
target = PAK1 (Homo sapiens, UniProt Q13153); result = 97%
target = FLT3 (Homo sapiens, UniProt P36888, D835Y); result = 100%
target = MAP3K20 (Homo sapiens, UniProt Q9NYL2); result = 92%
target = ROS1 (Homo sapiens, UniProt P08922); result = 100%
target = AKT2 (Homo sapiens, UniProt P31751); result = 100%
